{"data": "Measured values from different studies", "note": "± marks the error that the study gave."}
{"SMILES": "O=[N+]([O-])c1ccc(/C=N/N=C/c2ccc(O)cc2)s1", "organism": "Trypanosoma congolense", "assay": "parasite growth, CellTiter-Glo", "test system": "IL3000 bloodstream form", "setting": "72 h, 33 °C", "IC50 [µM]": "0.04 ± 0.01"}
{"SMILES": "CCN(CC)CC#CCNc1ccnc2cc(Cl)ccc12", "organism": "Plasmodium falciparum", "assay": "parasite growth, LDH", "IC50 [µM]": 0.079}
{"SMILES": "CC1=C(OC2CC3CCC2(C)C3(C)C)C(C)(C)C(=O)C(=C(O)C=Cc2ccccc2)C1=O (stereo not drawn)", "organism": "human respiratory syncytial virus", "assay": "viral replication, CPE reduction", "test system": "HEp-2, A2", "IC50 [µM]": "3.13 ± 0.69"}
{"SMILES": "O=[N+]([O-])c1ccc(/C=N/N=C/c2ccc(Cl)cc2)o1", "organism": "Trypanosoma brucei rhodesiense", "assay": "parasite growth, CellTiter-Glo", "test system": "IL1501 bloodstream form", "setting": "72 h", "IC50 [µM]": "1.26 ± 0.15"}
{"SMILES": "COC1C=COC2(C)Oc3c(C)c(O)c4c(c3C2=O)C2=NC3(CCN(CC(C)C)CC3)NC2=C(NC(=O)C(C)=CC=CC(C)C(O)C(C)C(O)C(C)C(OC(=O)c2cncnc2)C1C)C4=O (stereo not drawn)", "organism": "Mycobacteroides abscessus", "test system": "ATCC 19977", "setting": "50% human serum", "IC50 [µM]": 0.048}
{"SMILES": "COc1ccc(/C=N/N=C/c2ccc([N+](=O)[O-])s2)cc1", "organism": "Trypanosoma congolense", "assay": "parasite growth, CellTiter-Glo", "test system": "IL3000 bloodstream form", "setting": "72 h, 33 °C", "IC50 [µM]": "0.22 ± 0.04"}
{"SMILES": "COC1C=COC2(C)Oc3c(C)c(O)c4c(c3C2=O)C2=NC3(CCN(CC(C)C)CC3)NC2=C(NC(=O)C(C)=CC=CC(C)C(O)C(C)C(O)C(C)C(OC(=O)c2cccnc2)C1C)C4=O (stereo not drawn)", "organism": "Mycobacteroides abscessus", "test system": "ATCC 19977", "setting": "1:1 CAMHB:human serum", "IC50 [µM]": 0.15}
{"SMILES": "O=[N+]([O-])c1ccc(/C=N/N=C/c2ccccc2)s1", "organism": "Trypanosoma congolense", "assay": "parasite growth, CellTiter-Glo", "test system": "IL3000 bloodstream form", "setting": "72 h, 33 °C", "IC50 [µM]": "0.1 ± 0.04"}
{"SMILES": "COc1cc(O)cc(/C=C/c2ccccc2)c1", "organism": "Streptococcus mutans", "assay": "biofilm formation, crystal violet", "IC50 [µM]": 477}
{"SMILES": "C=C1CC[C@@H]2CC3=C(O[C@@]2(C)CC[C@@H]2[C@@H]1CC2(C)C)C(C)(C)C(=O)/C(=C(O)\\C=C\\c1ccccc1)C3=O", "organism": "human respiratory syncytial virus", "assay": "viral replication, CPE reduction", "test system": "HEp-2, A2", "IC50 [µM]": "24.7 ± 1.74"}
{"SMILES": "COc1ccc(/C=C/c2cc(O)cc(O[C@@H]3O[C@H](CO)[C@@H](O)[C@H](O)[C@H]3O)c2)cc1O", "organism": "Streptococcus mutans", "assay": "biofilm formation, crystal violet", "IC50 [µM]": 106}
{"SMILES": "CCCCCCSC[C@H]1CN(Cc2c[nH]c3c(N)ncnc23)C[C@@H]1O", "organism": "Campylobacter jejuni", "assay": "colony formation", "setting": "144 h, Mueller-Hinton agar", "IC50 [µM]": "1.3 ± 0.7"}
{"SMILES": "Cc1[nH]c2ccccc2c1CCNC(=O)c1cccs1", "organism": "Listeria", "assay": "Listeria comet tail motility, inhibitor", "test system": "SK-OV-3", "IC50 [µM]": 22}
{"SMILES": "C=C1CCC2Cc3c(O)c(C(=O)C=Cc4ccccc4)c(OC)c(C)c3OC2(C)CCC2C1CC2(C)C (stereo not drawn)", "organism": "human respiratory syncytial virus", "assay": "viral replication, CPE reduction", "test system": "HEp-2, A2", "IC50 [µM]": 50}
{"SMILES": "COc1ccccc1NC(=O)OC1C(C)C(OC)C=COC2(C)Oc3c(C)c(O)c4c(c3C2=O)C2=NC3(CCN(CC(C)C)CC3)NC2=C(NC(=O)C(C)=CC=CC(C)C(O)C(C)C(O)C1C)C4=O (stereo not drawn)", "organism": "Mycobacteroides abscessus", "test system": "ATCC 19977", "setting": "50% human serum", "IC50 [µM]": 0.15}
{"SMILES": "CSCC(CO)NCc1c[nH]c2c(N)ncnc12 (stereo not drawn)", "organism": "Campylobacter jejuni", "assay": "colony formation", "setting": "144 h, Mueller-Hinton agar", "IC50 [µM]": "135 ± 2.8"}
{"SMILES": "O=[N+]([O-])c1ccc(/C=N/N=C/c2ccc(Cl)cc2)s1", "organism": "Trypanosoma brucei rhodesiense", "assay": "parasite growth, CellTiter-Glo", "test system": "IL1501 bloodstream form", "setting": "72 h", "IC50 [µM]": "0.95 ± 0.27"}
{"SMILES": "Cc1ccc2c(c1)C(C(C)C)CCC21CCC2=C(O1)C(C)(C)C(=O)C(=C(O)C=Cc1ccccc1)C2=O (stereo not drawn)", "organism": "human respiratory syncytial virus", "assay": "viral replication, CPE reduction", "test system": "HEp-2, A2", "IC50 [µM]": "12.6 ± 0.92"}
{"SMILES": "CCCCCCCCCC1CC2CCC3CC(CCCCCCCCC)NC(=N1)N23 (stereo not drawn)", "organism": "Mycobacterium intracellulare", "assay": "microbial growth", "test system": "ATCC23068", "IC50 [µM]": 7.41}
{"SMILES": "C=C1CCC2Cc3c(c(C)c(O)c(C(=O)C=Cc4ccccc4)c3OC)OC2(C)CCC2C1CC2(C)C (stereo not drawn)", "organism": "human respiratory syncytial virus", "assay": "viral replication, CPE reduction", "test system": "HEp-2, A2", "IC50 [µM]": 50}
{"SMILES": "Nc1ncnc2c(CN3C[C@H](CSc4cnccn4)[C@@H](O)C3)c[nH]c12", "organism": "Campylobacter jejuni", "assay": "cell growth", "test system": "Mueller-Hinton broth", "setting": "16.4 h", "IC50 [µM]": "2.9 ± 0.9"}
{"SMILES": "COc1c(C)c2c(c(O)c1C(=O)C=Cc1ccccc1)CC1CCC(C)=CCC(C)(C)C=CCC1(C)O2 (stereo not drawn)", "organism": "human respiratory syncytial virus", "assay": "viral replication, CPE reduction", "test system": "HEp-2, A2", "IC50 [µM]": "49.6 ± 3.16"}
{"SMILES": "CCCCCC1CC2CCCC3CC(C)N=C(N1)N32 (stereo not drawn)", "organism": "Mycobacterium intracellulare", "assay": "microbial growth", "test system": "ATCC23068", "IC50 [µM]": 6.73}
{"SMILES": "CC(C)C1CCC2(C)C3CCC4(CCC5=C(O4)C(C)(C)C(=O)C(=C(O)C=Cc4ccccc4)C5=O)C2C13 (stereo not drawn)", "organism": "human respiratory syncytial virus", "assay": "viral replication, CPE reduction", "test system": "HEp-2, A2", "IC50 [µM]": "6.32 ± 0.69"}
{"SMILES": "C[n+]1ccc(/C=C/c2ccc(O)c(O)c2)c2ccccc21", "organism": "Streptococcus mutans", "assay": "biofilm formation, crystal violet", "IC50 [µM]": 104}
{"SMILES": "COc1ccc(/C=N/N=C/c2ccc([N+](=O)[O-])o2)cc1", "organism": "Trypanosoma brucei rhodesiense", "assay": "parasite growth, CellTiter-Glo", "test system": "IL1501 bloodstream form", "setting": "72 h", "IC50 [µM]": "2.88 ± 0.51"}
{"SMILES": "CC1(C)C(=O)C(=C(O)C=Cc2ccccc2)C(=O)C2=C1OC1(C)C(C2)CC2CC1C2(C)C (stereo not drawn)", "organism": "human respiratory syncytial virus", "assay": "viral replication, CPE reduction", "test system": "HEp-2, A2", "IC50 [µM]": "> 50"}
